Results collected from several papers.
Each line is one published result; not all experiments were run side by side. Several values in a cell are separate wells, animals, samples, runs or records. Numbers after ± are the reported error. Converted amounts (≈) assume the structure as drawn.

Compound = Nc1ccc(-c2nc(-c3ccc(Oc4ccc(C(F)(F)F)cc4)cc3)no2)cc1; test system = female CD-1 mouse, plasma; conditions = oral, 50 mg/kg; endpoint = bioavailability; value = 100%
Compound = CC(=O)Nc1ccc(O)cc1; test system = Bactrian camel, plasma; conditions = intramuscular, 4 mg/kg single dose; endpoint = elimination half-life; value = 5.59 ± 0.17 h
Compound = CN(C)C(=O)c1cc2cnc(Nc3ccc(N4CCNCC4)cn3)nc2n1C1CCCC1; test system = human, plasma; conditions = oral, 600 mg daily for 12 days, day of surgery; endpoint = unbound plasma concentration; value = 150 nM
Compound = C=CC(N)CCC(=O)O (stereo not drawn); test system = male Sprague-Dawley rat, plasma; conditions = intravenous, 1.0 mg/kg, formulation 0; endpoint = AUC(0-inf); value = 2420 ± 182 ng·h/mL
Compound = CC(C)[C@H](NC(=O)[C@@H]1CCCN1C(=O)[C@H](CCCNC(=N)N)NC(=O)[C@H](CS)NC(=O)[C@H](Cc1c[nH]c2ccccc12)NC(=O)[C@H](CCCNC(=N)N)NC(=O)[C@@H](Cc1ccccc1)NC(=O)[C@H](Cc1c[nH]cn1)NC(=O)[C@H](CCC(=O)O)NC(=O)[C@H](CS)NC(=O)[C@H](CS)NC(=O)[C@H](CCCCN)NC(=O)[C@@H]1CC(=O)N[C@@H](CCCNC(=N)N)C(=O)N[C@@H](C(C)C)C(=O)N[C@@H](CC(=O)O)C(=O)N[C@H](Cc2ccc(O)cc2)C(=O)N1)C(N)=O [technetium-99m labelled]; test system = C57 mouse, female, B16/F1 melanoma, stomach; conditions = intravenous, 2 h, with: NDP-MSH 10 µg co-injected; endpoint = tissue uptake; value = 1.39 ± 0.79 %ID/g
Compound = CCCC1O[C@@H]2C[C@H]3[C@@H]4CCC5=CC(=O)C=C[C@]5(C)[C@H]4[C@@H](O)C[C@]3(C)[C@]2(C(=O)CO)O1 (stereo partly drawn); test system = CD1 mice, plasma; conditions = subcutaneous, 0.2 mg/kg; endpoint = bioavailability; value = 59%
Compound = Cc1nc2cccc(OCC(C)(C)C(=O)NC(C)C)c2c(N)c1C(=O)O; test system = Sprague-Dawley rat, both sexes, feces; conditions = oral, 10 mg/kg; endpoint = excreted dose; value = 88.4%
Compound = CCCCCCCCCCCCCNCC(=O)N(CC(=O)N(CCCCN)CC(=O)N(CCN)CC(=O)N(CC(N)=O)CC1CCCCC1)CC1CCCCC1; test = preparative RP-HPLC C18; test system = water to acetonitrile gradient; conditions = 0.05% TFA in eluent; how to read = higher = more hydrophobic; endpoint = acetonitrile at elution; value = 71.4%
Compound = Cc1nc2ccccc2c(O)c1CC=C(Cl)Cl; test system = 0.1 M sodium acetate with 0.01% Triton X-100; conditions = pH 5.5; endpoint = maximum solubility; value = 20 µM
Compound = CO[C@H]1C[C@@H]2CC[C@@H](C)[C@@](O)(O2)C(=O)C(=O)N2CCCC[C@H]2C(=O)O[C@H]([C@H](C)C[C@@H]2CC[C@@H](OCCO)[C@H](OC)C2)CC(=O)[C@H](C)/C=C(\C)[C@@H](O)[C@@H](OC)C(=O)[C@H](C)C[C@H](C)/C=C/C=C/C=C/1C; test system = healthy human adults, blood; conditions = with: ritonavir-containing 3D regimen; how to read = baseline: with over without regimen; endpoint = C12 ratio; value = 16.1
Compound = CCc1oc2cc(OC)ccc2c1C(=O)c1cc(Br)c(O)c(Br)c1; test system = Sprague-Dawley rat, liver microsomes; conditions = 1.0 µM, pH 7.4, 37 °C, with: NADPH 1.0 mM; endpoint = intrinsic clearance; value = 118 ± 8.7 µL/min/mg
Compound = C[C@@H](O)[C@H]1C(=O)N2C(C(=O)O)=C(S[C@@H]3CN[C@H](C(=O)N(C)C)C3)[C@H](C)[C@H]12; test = microdialysis; test system = pig, Danish Landrace, subcutaneous adipose tissue; conditions = intravenous, 1000 mg over 10 min, 450 min dosing interval, with: 0.125 µg/mL MIC; how to read = baseline: dosing interval; endpoint = time above MIC; value = 74%
Compound = CCOc1ccc(Cc2cc([C@]34OC[C@](CO)(O3)[C@@H](O)[C@H](O)[C@H]4O)ccc2Cl)cc1; test system = human, type 2 diabetes, severe renal impairment, urine; conditions = oral, 15 mg, 0 to 96 h; endpoint = dose excreted unchanged; value = 0.389%
Compound = Cn1c(-c2ccc(C(N)=O)cc2F)nnc1C(C)(C)Oc1c(F)cc(Cl)cc1F; test system = young Japanese adults, plasma; conditions = oral, 10 mg single dose, day 1, high-dose multiple-dose study; endpoint = Cmax range over subjects; value = 62 to 148 ng/mL
Compound = O=C1CCc2c(O)cccc2C(=O)Nc2ccccc21; test = nephelometry; test system = aqueous buffer; conditions = 30 min, pH 6.5; endpoint = kinetic solubility; value = > 100 µg/mL
Compound = Cc1c2c(n(-c3ccc(Cl)cc3Cl)c1-c1ccc(OS(=O)(=O)CCC(F)(F)F)cc1)CCN(N1CCCCC1)C2=O; test = LC-MS/MS; test system = cynomolgus monkey 4, plasma; conditions = intravenous infusion, 1.0 mg/kg, 90 min, total concentration mid-point of PET; endpoint = plasma concentration; value = 401 nM
Compound = CCCS(=O)(=O)Nc1ccc(F)c(C(=O)c2c[nH]c3ncc(-c4ccc(Cl)cc4)cc23)c1F; test = rapid equilibrium dialysis; test system = 100% human plasma; conditions = 5 µM, 4 h; endpoint = unbound fraction; value = 1.02e-05 ± 3.8e-06
Compound = O=C(O)Cc1ccccc1Nc1c(Cl)cccc1Cl; test system = rat, plasma; conditions = oral, 10 mg/kg, with: sesamin 10 mg/kg; endpoint = t1/2; value = 11.8 ± 6.8 h
Compound = C=C(C)[C@@H]1CC[C@]2(NCCN3CCS(=O)(=O)CC3)CC[C@]3(C)[C@H](CC[C@@H]4[C@@]5(C)CC=C(C6=CC[C@@](CF)(C(=O)O)CC6)C(C)(C)[C@@H]5CC[C@]43C)[C@@H]12; test = LC-MS/MS; test system = HIV-1-infected treatment-naive adults, plasma; conditions = oral, 80 mg once daily, day 7, monotherapy; endpoint = trough concentration; value = 360 ng/mL
Compound = C[C@@H]1O[C@@H](OC[C@H]2O[C@@H](Oc3c(-c4ccc(O)c(O)c4)oc4cc(O)cc(O)c4c3=O)[C@H](O)[C@@H](O)[C@@H]2O)[C@H](O)[C@H](O)[C@H]1O; test = UPLC-MS/MS; test system = Wistar rat, microcirculation dysfunction model, plasma; conditions = oral, 100 mg/kg Salvia miltiorrhiza stem-leaf extract FT; endpoint = MRT(0-inf); value = 28 ± 32.9 h
Compound = O=C1N=C(N2CCOCC2)CN1c1ccc(Cl)cc1; test system = beagle dog, female, plasma; conditions = oral, 30 mg/kg, tablets; endpoint = AUC(0-inf); value = 82900 ng·h/mL
Compound = O=C([O-])CN(CC(=O)[O-])CC(=O)O.[Cu+2]; test = square wave voltammetry; test system = metal chelate; conditions = concentration not given, pH 7.4, anaerobic; endpoint = reduction potential vs NHE; value = 215 mV
Compound = C[C@@H]1CCC[C@H](n2cnc(-c3cc(Cl)ccc3-n3cc(Cl)nn3)cc2=O)c2cc(ccn2)-c2c(cnn2C(F)F)NC1=O; test system = human, plasma; conditions = oral, 200 mg, single dose, fed, healthy volunteers; endpoint = half-life; value = 9 h
Compound = CCCOc1ccc([C@H]2CNC(=O)N2c2ccc3[nH]cnc3c2)cc1; test system = human volunteers fasted, plasma; conditions = oral tablet, 1800 mg single dose, day 1, geometric mean; endpoint = AUC(0-12h); value = 30500 ng·h/mL
Compound = C=CC(=C)CC[C@]1(C)[C@H](C)C[C@H](OC(=O)CCCCCCCCC)[C@@]23C(=C[C@H](OC(C)=O)C[C@@H]12)[C@@H](OC(C)=O)O[C@H]3OC(C)=O; test = haemolysis; conditions = 100 µM; endpoint = haemolysis; value = 10%
Compound = C[C@@H](Oc1ccc(S(C)(=O)=O)cc1C(=O)N1C[C@@H]2C[C@]2(c2cc(C(F)(F)F)on2)C1)C(F)(F)F; test system = human male, plasma; conditions = oral, 25 mg once daily, 312 h; endpoint = trough concentration; value = 266 nM
Compound = Cn1nnc2c(C(N)=O)ncn2c1=O; test system = FVB mice, Abcb1a/b knockout; conditions = intravenous, 50 mg/kg; endpoint = plasma half-life; value = 0.757 ± 0.021 h
Compound = O=C(NC[C@H]1CN(c2ccc(N3CCOCC3=O)cc2)C(=O)O1)c1ccc(Cl)s1; test system = Sprague-Dawley rat, male, plasma; conditions = oral, 10 mg/kg, with: naringenin 10 mg/kg/day oral, 2 weeks; endpoint = MRT(0-inf); value = 7.43 ± 2.32 h
Compound = C[C@](N)(Cc1ccc(O)c(O)c1)C(=O)O; test = static gravimetric method; test system = supercritical CO2, 797.4 kg/m3; conditions = 5 h, 323 K, pressure 21 MPa; endpoint = solubility; value = 226 µg/mL (≈ 1070 µM)
Compound = CS(=O)(=O)OC[C@H](O)[C@@H]1CO1; test system = Wistar rat, female, red blood cells and plasma; conditions = intraperitoneal, 500 mg/kg treosulfan, 4 h; endpoint = RBC/plasma partition coefficient; value = 0.6 and 0.67 and 0.56
Compound = COc1cccc(N2CCN(C3=Nc4c(F)cccc4[C@H](CC(=O)O)N3c3cc(C(F)(F)F)ccc3OC)CC2)c1; test = UHPLC-MS/MS; test system = healthy women, plasma; conditions = intravenous infusion, 120 mg single dose, 30 min infusion, HPβCD formulation; endpoint = elimination rate constant; value = 1.74e-05 ± 5.38e-06 s⁻¹
Compound = [2H]C([2H])([2H])Oc1cc2c(cc1OC([2H])([2H])[2H])C1CC(=O)C(CC(C)C)CN1CC2 (stereo not drawn); test = refers to: deuterated α-HTBZ; test system = healthy human volunteers, plasma; conditions = oral, 18 mg single dose, standard meal; endpoint = dose-normalized AUC(0-t); value = 15.7 ng·h/mL
Compound = C=CC(=O)Nc1cc(Nc2ncc(C(=O)OC(C)C)c(-c3cn(C)c4ccccc34)n2)c(OC)cc1N(C)CCN(C)C; test system = human, fasted; conditions = oral, 40 mg single dose, geometric mean; endpoint = AUC(0-t); value = 155 ng·h/mL
Compound = Cc1ccc(-c2cc(C(F)(F)F)nn2-c2ccc(S(N)(=O)=O)cc2)cc1; test system = male ICR mouse, plasma; conditions = oral, 3 mg/kg, 24 h; endpoint = AUC; value = 3420 ng·h/mL
Compound = C[C@]12CC[C@@H]3c4ccc(O)cc4CC[C@H]3[C@@H]1C[C@@H](O)[C@@H]2O; test = GC-MS; test system = breast cancer women on NSAI, serum; conditions = vaginal, 0.03 mg, 0.5 h, day 0; endpoint = maximum serum concentration; value = 0.0141 ng/mL
Compound = CCCC[C@H](NC(C)=O)C(=O)N[C@H]1CCC(=O)NC[C@@H](C(=O)N[C@@H](Cc2c[nH]c3ccccc23)C(N)=O)NC(=O)[C@H](CCCNC(=N)N)NC(=O)[C@@H](Cc2ccccc2)NC(=O)[C@H](Cc2c[nH]cn2)NC1=O; test system = CD Sprague Dawley rat, male, plasma; conditions = subcutaneous, 5.0 mg/kg daily, day 1; endpoint = AUC(0-inf); value = 4510 ng·h/mL

For quick reference, copied from above:
Compound = C[C@](N)(Cc1ccc(O)c(O)c1)C(=O)O; test = static gravimetric method; test system = supercritical CO2, 797.4 kg/m3; conditions = 5 h, 323 K, pressure 21 MPa; endpoint = solubility; value = 226 µg/mL (≈ 1070 µM)
Compound = CS(=O)(=O)OC[C@H](O)[C@@H]1CO1; test system = Wistar rat, female, red blood cells and plasma; conditions = intraperitoneal, 500 mg/kg treosulfan, 4 h; endpoint = RBC/plasma partition coefficient; value = 0.6 and 0.67 and 0.56
Compound = COc1cccc(N2CCN(C3=Nc4c(F)cccc4[C@H](CC(=O)O)N3c3cc(C(F)(F)F)ccc3OC)CC2)c1; test = UHPLC-MS/MS; test system = healthy women, plasma; conditions = intravenous infusion, 120 mg single dose, 30 min infusion, HPβCD formulation; endpoint = elimination rate constant; value = 1.74e-05 ± 5.38e-06 s⁻¹
